Measured values collected from several papers.
Each line is one published result; not all experiments were run side by side.
Target: Inhibitor of nuclear factor kappa-B kinase subunit alpha (CHUK, Homo sapiens, UniProt O15111)
Residues used in one study (O15111 1-745): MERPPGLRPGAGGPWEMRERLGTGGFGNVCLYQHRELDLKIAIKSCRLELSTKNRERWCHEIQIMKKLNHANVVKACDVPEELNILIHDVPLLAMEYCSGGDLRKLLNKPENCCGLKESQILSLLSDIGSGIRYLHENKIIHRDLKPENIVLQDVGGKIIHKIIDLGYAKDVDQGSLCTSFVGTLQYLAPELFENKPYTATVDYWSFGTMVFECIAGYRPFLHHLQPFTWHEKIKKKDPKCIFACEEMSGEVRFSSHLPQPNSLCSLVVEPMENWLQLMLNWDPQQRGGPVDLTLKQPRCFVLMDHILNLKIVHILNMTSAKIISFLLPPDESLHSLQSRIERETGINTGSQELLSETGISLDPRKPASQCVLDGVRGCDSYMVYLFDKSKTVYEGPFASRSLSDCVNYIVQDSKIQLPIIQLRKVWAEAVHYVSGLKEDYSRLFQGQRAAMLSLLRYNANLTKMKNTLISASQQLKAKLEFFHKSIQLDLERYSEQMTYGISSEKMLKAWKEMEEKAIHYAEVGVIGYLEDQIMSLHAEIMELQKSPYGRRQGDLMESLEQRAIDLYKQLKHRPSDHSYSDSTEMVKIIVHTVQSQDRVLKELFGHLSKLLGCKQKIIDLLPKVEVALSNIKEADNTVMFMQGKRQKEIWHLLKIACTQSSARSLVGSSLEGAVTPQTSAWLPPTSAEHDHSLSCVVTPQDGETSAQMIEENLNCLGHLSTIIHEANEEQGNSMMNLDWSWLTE

Structure (SMILES) | test | system | setting | scale | quantity | value
C=CC(=O)Nc1cc(-c2nn(C3CCC(N4CCN(C(C)=O)CC4)CC3)c3ncnc(N)c23)ccc1Oc1ccccc1 (stereo not drawn) | inhibitor, KiNativ profiling | biochemical | 2 µM | – | inhibition | -4.5%
CS(C)(=O)=Nc1ccc(-c2ccc(-c3nc4cc(O[C@@H]5CO[C@H]6[C@@H]5OC[C@H]6O)[nH]c4cc3F)cc2)cc1 | enzyme activity, inhibitor | – | 10 µM | – | inhibition | 14%
CN(C)[C@H]1C[C@@]23CC[C@@]4(O2)C(=CC[C@]2(C)[C@@H](c5ccc6ccncc6c5)CC[C@H]24)C=C3[C@@H](O)[C@@H]1O | ATP probe labelling, inhibitor, KiNativ profiling | – | 0.1 µM | – | inhibition | 11.3%
Nc1ccc(/C=C/C(=O)N2CCc3c(oc4c(-c5ccc(F)cc5)cc(-c5ccc(C(=O)N6CCC(F)(F)CC6)cn5)cc34)C2)cn1 | binding, competition with immobilised ligand | – | 1 µM | – | remaining binding | 100%
C[C@H](NCc1ccc(-c2ccc(C(F)(F)F)cc2)cc1)C(N)=O | cell-free assay, competition with immobilised ligand | – | 1 µM | – | inhibition | 3%
O=C(O)c1ccccc1/C=N/Nc1nc(-c2ccccc2Cl)cs1 | enzyme activity, inhibitor | – | 1 µM | – | inhibition | -10.7%
O=C1NC(=O)c2c1c1cc(F)c[n+]3c1c1c2c2cc(O)ccc2[n]1[Ru-4]312([N]=C=S)[S+]3CC[S+]1CC[S+]2CC3 (stereo not drawn) | enzyme activity | – | 100 nM, human enzyme, with: 10 µM ATP | relative to: untreated | remaining activity | 111%
CCOC(=O)[C@@H]1Cc2c(cc([N+](=O)[O-])cc2[N+](=O)[O-])[C@H](O)[C@]12C(=O)Nc1ccc(Br)cc12 | binding, competition with immobilised ligand | – | 0.1 µM | – | remaining binding | 47%
CC(C)[C@H]1NC(=O)C[C@H]2/C=C/CCSSC[C@@H](NC1=O)C(=O)N[C@H](Cc1cccc3ccccc13)C(=O)NCC(=O)O2 | enzyme activity, inhibitor | – | 10 µM | – | inhibition | -0.468%

For quick reference, copied from above:
Structure (SMILES) | test | system | setting | scale | quantity | value
CCOC(=O)[C@@H]1Cc2c(cc([N+](=O)[O-])cc2[N+](=O)[O-])[C@H](O)[C@]12C(=O)Nc1ccc(Br)cc12 | binding, competition with immobilised ligand | – | 0.1 µM | – | remaining binding | 47%
